Results from different studies.
Each line is one published result; not all experiments were run side by side. Numbers after ± are the reported error.

SMILES = CC[C@H](C)[C@@H]1NC(=O)[C@H](Cc2ccc(O)cc2)NC(=O)CCCSC[C@@H](C(=O)N(CC(=O)N[C@@H](CC(C)C)C(=O)NCC(N)=O)Cc2ccc(F)cc2)NC(=O)[C@H](CC(N)=O)NC(=O)[C@H](CCC(N)=O)NC1=O; test system = human; setting = intranasal, 15 µg single dose; endpoint = drug-related headache; value = 17%
SMILES = Cc1n[nH]c(C)c1CCCOc1cc(C(=O)NCCCCC(NC(=O)CN2CCN(CC(=O)[O-])CCN(CC(=O)[O-])CCN(CC(=O)[O-])CC2)C(=O)NCC2CCC(C(=O)NC(Cc3ccc4ccccc4c3)C(=O)NCCCCC(NC(=O)NC(CCC(=O)O)C(=O)O)C(=O)O)CC2)ccc1F.[68Ga+3] (stereo not drawn); assay = micro-PET/CT; test system = mouse 22Rv1 xenograft, tumour; setting = 2 h post-injection; endpoint = maximum tumour uptake; value = 16.8 ± 1.45 %ID/g
SMILES = C=CC(=O)Nc1cc(Nc2nccc(-c3c[nH]c4ccccc34)n2)c(OC)cc1N(C)CCN(C)C; assay = storage stability; test system = human dried blood spot; setting = 30 d, on ice, HQC level; endpoint = recovery; value = 55.3%
SMILES = COc1cccc(OC)c1-c1cc(C(=O)NC2(C(=O)O)C3CC4CC(C3)CC2C4)nn1-c1ccc(C(=O)NCCNC(=O)[C@H](CCCCNC(=O)[C@H](CC(C)C)NC(=O)C2OC2C(=O)O)NC(=O)CN2CCN(CC(=O)[O-])CCN(CC(=O)[O-])CCN(CC(=O)[O-])CC2)cc1C(C)C.[177Lu+3] (mixture of isomers); test system = mouse HT-29 xenograft; setting = 24 h, biodistribution; how to read = baseline: tumour over large intestine; endpoint = tumour-to-large intestine ratio; value = 17
SMILES = CC[C@H](C)[C@H](NC(=O)[C@H](CC(=O)O)NC(C)=O)C(=O)N[C@H](C(=O)N[C@H](C(=O)N[C@@H](CCCNC(=N)N)C(=O)N[C@@H](Cc1ccc(O)cc1)C(=O)N[C@@H](CC(N)=O)C(=O)NCC(=O)N[C@@H](CCCCN)C(=O)N[C@H](C(=O)N[C@@H](Cc1c[nH]c2ccccc12)C(=O)N[C@@H](Cc1c[nH]c2ccccc12)C(=O)N[C@@H](CCCNC(=N)N)C(=O)O)C(C)C)[C@@H](C)O)[C@@H](C)O; assay = circular dichroism; test system = free peptide in solution; setting = concentration not given, 25 °C, no insulin present; endpoint = α-helix content; value = 3.95%
SMILES = Cl.NCc1ccc2c(c1)CN(C1CCC(=O)NC1=O)C2=O (stereo not drawn); test system = human, mixed sex, whole blood; setting = 3 h; endpoint = remaining compound; value = > 95%
SMILES = COc1cccc(OC)c1-c1cc(C(=O)NC2(C(=O)O)C3CC4CC(C3)CC2C4)nn1-c1ccc(C(=O)N(C)CCCN(C)C(=O)[C@H](CCCCNC(=O)[C@H](CC(C)C)NC(=O)C2OC2C(=O)O)NC(=O)CN2CCN(CC(=O)[O-])CCN(CC(=O)[O-])CCN(CC(=O)[O-])CC2)cc1C(C)C.[177Lu+3] (mixture of isomers); test system = mouse HT-29 xenograft; setting = 4 h, biodistribution; how to read = baseline: tumour over small intestine; endpoint = tumour-to-small intestine ratio; value = 13.8
SMILES = CC(=O)N([O-])CCCCCNC(=O)CCC(=O)N([O-])CCCCCNC(=O)CCC(=O)N([O-])CCCCCN.[89Zr+4]; test system = mouse, kidney; setting = 4 h; endpoint = tracer uptake; value = 6.3 %ID/g
SMILES = O=C(Nc1cnccc1-c1ccc([18F])nc1)c1ccnc(NC(=O)C2CC2)c1; assay = ex vivo gamma counting; test system = GSK-3β transgenic mice, early-stage, hippocampus; setting = intravenous, 120 min, mean, P-gp inhibitor pretreatment, together with: tariquidar 15 mg/kg iv; endpoint = SUV; value = 0.074
SMILES = CCCC[C@H](NC(=O)CNC(=O)CNC(=O)[C@H](CCCCNC(=O)[C@H](CC(=O)O)NC(=O)C(C)c1ccc(CC(C)C)cc1)NC(=O)CN1CCN(CC(=O)O)CCN(CC(=O)O)CCN(CC(=O)O)CC1)C(=O)N[C@H]1CC(=O)NCCCC[C@@H](C(N)=O)NC(=O)[C@H](Cc2c[nH]c3ccccc23)NC(=O)[C@H](CCCNC(=N)N)NC(=O)[C@@H](Cc2ccccc2)NC(=O)[C@H](Cc2c[nH]cn2)NC1=O (stereo partly drawn) [lutetium-177 labelled]; test system = C57 mice, tumour; setting = intravenous, 0.037 MBq, 4 h; how to read = baseline: liver; endpoint = tumour-to-tissue ratio; value = 9.73
SMILES = COc1ccnc(C(=O)N[C@H]2COC(=O)[C@H](Cc3ccccc3)[C@@H](OC(=O)C(C)C)[C@H](C)OC2=O)c1O; test system = bovine muscle; setting = -18 °C; endpoint = storage stability; value = 6 months
SMILES = Cc1noc(C)c1Cn1cc(N2C(=O)CN(Cc3cccc(OS(=O)(=O)O)c3)C2=O)cn1; test system = Sprague-Dawley rat, male; setting = oral, 30 mg/kg of parent drug, 24 h; endpoint = plasma concentration; value = 14 ng/mL

A few entries again:
SMILES = Cc1n[nH]c(C)c1CCCOc1cc(C(=O)NCCCCC(NC(=O)CN2CCN(CC(=O)[O-])CCN(CC(=O)[O-])CCN(CC(=O)[O-])CC2)C(=O)NCC2CCC(C(=O)NC(Cc3ccc4ccccc4c3)C(=O)NCCCCC(NC(=O)NC(CCC(=O)O)C(=O)O)C(=O)O)CC2)ccc1F.[68Ga+3] (stereo not drawn); assay = micro-PET/CT; test system = mouse 22Rv1 xenograft, tumour; setting = 2 h post-injection; endpoint = maximum tumour uptake; value = 16.8 ± 1.45 %ID/g
